Published values from different studies.
Every numbered part comes from another study and shows a few of its results, in no order. Substitutions count along the parent as printed.

Block 1
Target: ABI1, truncated, D143A, DHFR fusion (Arabidopsis thaliana)
Method: DHFR PCA, deep sequencing
Medium: yeast
Notes: methotrexate growth selection, single substitutions
Added: (+)-ABA 0.0091 µM
Reference: wild-type fitted maximum
Direction: higher = stronger binding
Parent: PYL1, truncated, DHFR fusion (Arabidopsis thaliana); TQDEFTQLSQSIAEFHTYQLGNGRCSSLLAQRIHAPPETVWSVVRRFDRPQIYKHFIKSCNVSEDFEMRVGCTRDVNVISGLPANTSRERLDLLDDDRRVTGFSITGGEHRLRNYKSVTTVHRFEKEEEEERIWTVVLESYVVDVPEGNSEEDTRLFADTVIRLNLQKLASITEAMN
| Variant | relative binding score [%] |
| --- | --- |
| G21K | 22.5 |
| N114G | 15.7 |
| E109R | 2.58 |
| T106L | 57.2 |
| A30D | 2.8 |
| V118F | 0.485 |
| R32V | 50 |
| V76R | -2.1 |
| Y141W | -0.313 |
| A35T | 1.71 |
| P50G | -4.39 |
| T120P | -3.67 |
| T1G | 20.6 |
| L94D | -10.8 |
| K58R | 18.8 |
| S171Q | 48 |
| V142E | 7.49 |
| I12L | -3.34 |

Block 2
Target: RNA binding protein fox-1 homolog 2, RRM domain, GST-SBP tag (RBFOX2, Homo sapiens, UniProt O43251-10, residues 100-194)
Method: RNA Bind-n-Seq
Form: RNA
Medium: in vitro
Concentration: 365 nM
Notes: natural RNA segment, single round, ends assumed
Reference: no-protein control
Direction: higher = stronger binding
All sequences stand within: GGGAGUUCUACAGUCCGACGAUC … UGGAAUUCUCGGGUGCCAA
Construct (chain): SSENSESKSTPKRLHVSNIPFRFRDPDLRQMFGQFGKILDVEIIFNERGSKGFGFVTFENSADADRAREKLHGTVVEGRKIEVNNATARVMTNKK
| Oligonucleotide | RBNS enrichment (R) |
| --- | --- |
| AUAUCAAGGUGGCAGUGGAAGGGGGUGAGCUAAGGACCCAGCAAGGUUUCCUGGAGGCAAAGUUUAUGAAAUCCUUUCUGUAACUCCAUAAAGAUGUCUGCAGCUAUUUC | 0.544 |
| UCAUGCCAAAGUUCUGAUGACGUAACCAGUUGACCCUUCACACAGAGUGCCCUUUCCCCCCCUCCCCCCUCCCCAUGCUUCUGUGAUUGCUCUGUAGCCAUGUGAAGCUU | 1.01 |
| GUAUUUCCUCCUGGCCCUUUUGGGUAUCAGCUUGCAGCUGGGAUACAGGCAUCUUAGAUAUUGCAGUUUCUCCUGCUAUUCACUAGAAAGAAGGCUUGGCUUUCUUGACU | 0.529 |
| AUUACAAAAUUAAAUUCUACAUUGUUACCAAGAAAUUUGUGGUGAUAAAAAUGGAAAAAUAAAAAUUGGGGAGUUAGUGAGGUUCUGUGCUUAUGUCUAUUUGUUCUGGA | 0.974 |
| AAGAUUUAUUUUUUAAUAUGUUGACUUUGUUUCUCAGCAAAGCAUUGGUCAUGUGUGUAUUUUUCCAUAGUCCCACCUUGGAGCAUUUAUGUAGACAUUGUAAAUAAAUU | 0.754 |
| AACAAACUUUCUGAGGCUGGGUCAGCUUGCCUUAUAGUACUCCUCUCCUGCUAUGCCAACCUCAGGUGACCUGCUACCAUCCUCUAUACCUUCCUCCGCCAUCUGACUUC | 0.98 |
| CCACACACCGUGUACCCAUAGGGCCCCAAAUGUGGGGUCACAUGGUCUUGAAUUUUGUUGGUUACAUAUGCCUUUUUGUUGUUGUUUGUCUUCACUUUUGAUAUAUAAAC | 0.62 |
| UUCCCUGCCACCCGGGGUAAGGAGGUGGCACUACCAGUCUGUCUAACCCACUCACUGGCUUUGACCUUCAACUGCCAGUCUGGGCAAAUACCAGUGAGCUCUGUUGUACC | 0.331 |

Block 3
Target: Histone acetyltransferase KAT6A, winged helix 2, GST fusion (KAT6A, Homo sapiens, UniProt Q92794, residues 85-181)
Method: protein binding microarray
Form: double-stranded DNA, one strand shown
Medium: in vitro
Concentration: not given
Notes: 8-mer, flanks averaged, mean of 2 arrays, mostly near background
Reference: not given
Direction: higher = stronger binding
Construct (chain): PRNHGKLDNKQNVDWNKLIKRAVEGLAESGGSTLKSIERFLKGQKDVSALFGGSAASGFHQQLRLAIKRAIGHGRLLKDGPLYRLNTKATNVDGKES
| Oligonucleotide | E-score |
| --- | --- |
| ATGATGTC | -0.0186 |
| CCGGTCAC | 0.0346 |
| ATTGAAGA | 0.00831 |
| AACGCCTG | -0.0183 |
| CTCGGGTA | 0.0536 |
| AATGGGAC | -0.0329 |
| TACCATGA | -0.147 |
| CAGACAGG | 0.00206 |
| AAGTTTCA | 0.158 |
| GTGCATCA | 0.0812 |
| CGCAGCAC | 0.0412 |
| CATGCCGC | 0.21 |
| ATGTTTGA | -0.103 |
| CGGCTTAA | 0.257 |
| CGGGGGGA | -0.0303 |
| CGCATCAA | 0.0419 |
| CCCGGCAC | 0.0301 |
| TAGTACCA | -0.0288 |

Block 4
Target: CCNE1, cyclin fold, Cln2 fusion (human)
Method: yeast growth competition, sequencing
Medium: yeast
Notes: strong parent motif
Reference: not given
Direction: higher = stronger binding
Parent: CDKN1B docking peptide (human); PSACRNLFGPVDH
| Variant | normalised enrichment score |
| --- | --- |
| PSAQRNLFGPVDH [C4Q] | 0.277 |
| PSAWRNLFGPVDH [C4W] | 0.773 |
| PSQCRNLFGPVDH [A3Q] | 0.939 |
| PSACRNLYGPVDH [F8Y] | -0.0352 |
| PSACRNLFDPVDH [G9D] | 1.98 |
| PSACRNGFGPVDH [L7G] | 0.357 |
| PSAPRNLFGPVDH [C4P] | 0.123 |
| PSACRCLFGPVDH [N6C] | 2.17 |
| PSACRNLFGPVDQ [H13Q] | 3.09 |
| PSACRNLFGPVDM [H13M] | 2.87 |
| PSACRNLDGPVDH [F8D] | 0.0012 |
| PSAGRNLFGPVDH [C4G] | -0.415 |
| PSACNNLFGPVDH [R5N] | 0.319 |
| PSACRNLFGPLDH [V11L] | 2.72 |
| PIACRNLFGPVDH [S2I] | 1.41 |
| PSACRNLFGPVDC [H13C] | 2.85 |
| PEACRNLFGPVDH [S2E] | 1.85 |
| PSACRNLFFPVDH [G9F] | 1.6 |
| PSACKNLLGPVDH [R5K F8L] | 0.211 |
| PDACRNLFGPVDH [S2D] | 1.89 |
| PSACRNLFGPVVH [D12V] | 2.78 |
| PSACRNLFGPVDY [H13Y] | 3.39 |
| PSACRNKFGPVDH [L7K] | 0.31 |
| PSACRNLLGPVDH [F8L] | 0.00191 |
| PSACRNLFPPVDH [G9P] | 1.78 |

Block 5
Target: Sal-like protein 4, full length isoform B (SALL4, Homo sapiens, UniProt Q9UJQ4-2, residues 1-616)
Method: universal PBM
Form: double-stranded DNA, one strand shown
Medium: in vitro
Concentration: not given
Notes: 8-mer, flanks averaged, mean of replicates
Direction: higher = stronger binding
| Oligonucleotide | E-score |
| --- | --- |
| TGTCTAAA | 0.214 |
| ATGCCGGA | -0.153 |
| CTCCAAGC | -0.165 |
| ATCGGGTC | -0.158 |
| CGTTTTGC | -0.0674 |
| CGGTCGCA | -0.253 |
| TCGCGCGA | -0.141 |
| CTAGGCAC | -0.158 |
| CATCTCCG | -0.038 |
| GTTGAATA | 0.286 |
| ATGTTACA | 0.237 |
| AAAGCGTG | -0.0865 |
| AGAATTTA | 0.299 |
| CAGCGTTA | -0.0731 |
| TACGCAGA | 0.0648 |
| CAGCAACG | 0.026 |
| GCAGTGCA | -0.0645 |
| TACAGTAA | 0.316 |
| GAAGAGAA | 0.164 |
| CGGACGGC | -0.287 |
| CTCTATCA | 0.106 |
| AATACCGT | 0.157 |

Repeated from above (block 2):
| Oligonucleotide | RBNS enrichment (R) |
| --- | --- |
| UUCCCUGCCACCCGGGGUAAGGAGGUGGCACUACCAGUCUGUCUAACCCACUCACUGGCUUUGACCUUCAACUGCCAGUCUGGGCAAAUACCAGUGAGCUCUGUUGUACC | 0.331 |
| AUAUCAAGGUGGCAGUGGAAGGGGGUGAGCUAAGGACCCAGCAAGGUUUCCUGGAGGCAAAGUUUAUGAAAUCCUUUCUGUAACUCCAUAAAGAUGUCUGCAGCUAUUUC | 0.544 |
| AACAAACUUUCUGAGGCUGGGUCAGCUUGCCUUAUAGUACUCCUCUCCUGCUAUGCCAACCUCAGGUGACCUGCUACCAUCCUCUAUACCUUCCUCCGCCAUCUGACUUC | 0.98 |
| UCAUGCCAAAGUUCUGAUGACGUAACCAGUUGACCCUUCACACAGAGUGCCCUUUCCCCCCCUCCCCCCUCCCCAUGCUUCUGUGAUUGCUCUGUAGCCAUGUGAAGCUU | 1.01 |
| CCACACACCGUGUACCCAUAGGGCCCCAAAUGUGGGGUCACAUGGUCUUGAAUUUUGUUGGUUACAUAUGCCUUUUUGUUGUUGUUUGUCUUCACUUUUGAUAUAUAAAC | 0.62 |
| AUUACAAAAUUAAAUUCUACAUUGUUACCAAGAAAUUUGUGGUGAUAAAAAUGGAAAAAUAAAAAUUGGGGAGUUAGUGAGGUUCUGUGCUUAUGUCUAUUUGUUCUGGA | 0.974 |
| GUAUUUCCUCCUGGCCCUUUUGGGUAUCAGCUUGCAGCUGGGAUACAGGCAUCUUAGAUAUUGCAGUUUCUCCUGCUAUUCACUAGAAAGAAGGCUUGGCUUUCUUGACU | 0.529 |
| AAGAUUUAUUUUUUAAUAUGUUGACUUUGUUUCUCAGCAAAGCAUUGGUCAUGUGUGUAUUUUUCCAUAGUCCCACCUUGGAGCAUUUAUGUAGACAUUGUAAAUAAAUU | 0.754 |
